Published values gathered from unrelated publications.
Each line is one published result; not all experiments were run side by side. Numbers after ± are the reported error. Converted amounts (≈) assume the structure as drawn.

| SMILES | test | system | setting | how to read | measurement | result |
| --- | --- | --- | --- | --- | --- | --- |
| CCc1ccc(C(=O)Oc2ccc(C#N)c(F)c2)cc1 |  | Sprague-Dawley rat, female, placenta | 5000 ng/mL in perfusate, 50 (unit not given), high dose, mixture of 21 LCMs |  | median placental accumulation | 24.7 ng/g |
| Cn1cncc1[C@@](N)(c1ccc(Cl)cc1)c1ccc2c(c1)c(-c1cccc(Cl)c1)cc(=O)n2C |  | healthy male humans, faeces | oral, 50 mg, [14C]-labelled | reference: dose | unchanged drug excreted | 6% |
| CCC(=O)O[C@]1(C(=O)SCF)[C@H](C)C[C@H]2[C@@H]3C[C@H](F)C4=CC(=O)C=C[C@]4(C)[C@@]3(F)[C@@H](O)C[C@@]21C | three-compartment model | rat, plasma | intravenous, 90 nmol/kg |  | rapid compartment volume | 2.8 ± 1 L/kg |
| O=C1NCCc2nc(OCc3cccc(F)c3)ccc21 | measured: Catalepsy | Sprague-Dawley rat male | oral, 100 mg/kg, 30 min | direction not given | Irwin test score | 0 |
| Cc1cccc(CNC(=O)c2cn(CCNC(=O)c3ccccc3Sc3c([N+](=O)[O-])ncn3C)c3cc4c(cc3c2=O)OC(F)(F)O4)n1 |  | Sprague-Dawley rat, male, whole blood | intramuscular, 30 mg/kg of parent drug |  | Cmax | 29.4 ± 14.7 ng/mL |
| O=C(Nc1cnccc1Cl)N1CCN(Cc2ccc3c(c2)OC(F)(F)O3)CC1 | measured: Fatigue | human healthy young men | 10 mg, multiple dose |  | adverse event incidence | 0% |
| CNC(=O)c1ccc(-c2cnc3ncc(Cc4ccc5ncccc5c4)n3n2)cc1F |  | human mild hepatic impairment | oral, 200 mg single dose, covariate-adjusted geometric mean |  | AUC(0-t) | 5680 ng·h/mL |
| O=C(Nc1nc2cccc(-c3ccc(CN4CCS(=O)(=O)CC4)cc3)n2n1)C1CC1 | measured: hypercholesterolaemia | human rheumatoid arthritis patients | oral, 200 mg once daily, 4 weeks, regardless of relatedness |  | treatment-emergent adverse events | 0% |
| C=CC(=O)Nc1cc(Nc2nccc(-c3cn(C)c4ccccc34)n2)c(OC)cc1N(C)CCN(C)C | storage stability | human dried blood spots | 24 h, -80 °C, high QC level |  | recovery | 105% |
| C[C@@H](c1ccc2nccn2c1)n1nnc2ncc(-c3cnn(C)c3)nc21 | measured: drug hypersensitivity | EGFR-mutant MET-altered NSCLC patients | oral, dose not given, AE grade ≥3, all |  | incidence of treatment-related AEs | 1% |
| CNCc1ccc(-c2[nH]c3cc(F)cc4c3c2CCNC4=O)cc1 |  | human patients | oral, 240 mg twice daily, all grades |  | dyspnoea incidence | 0% |
| C[C@@H]1COCCN1c1cc(C2([S@](C)(=N)=O)CC2)nc(-c2cc[nH]c3nccc2-3)n1 |  | Japanese advanced solid tumour patients | oral, 160 mg twice daily, any grade |  | Fatigue incidence | 0% |
| Cl.[2H]C([2H])([2H])CC(=O)c1cnc(NC(=O)C2CC2)cc1Nc1cccc(-c2ncn(C([2H])([2H])[2H])n2)c1OC |  | human, fed | oral, 25 mg, single dose, liquid formulation, geometric mean |  | AUC(0-inf) | 1830 ng·h/mL |
| Cn1cc(Nc2nccc(-c3ccc4c(c3)CN(C3COC3)CC[C@H]4NC(=O)c3cn(C(C)(C)C)nn3)n2)cn1 |  | human, whole blood | 300 mg twice daily, day 7 | reference: pre-dose baseline | B cell count change | 48.7% |
| COc1cc(-c2[o+]c3cc(O)cc(O)c3cc2O[C@@H]2O[C@H](CO)[C@@H](O)[C@H](O)[C@H]2O)cc(O)c1O | CIELAB from visible spectra | aqueous buffer | 50 µM, pH 7, ±BSA 600 µM or lysozyme 1000 µM |  | hue angle | 347.72 ± 0.31 degrees |
| COc1ccc(NC(=O)CN2CCOCC2)c([N+](=O)[O-])c1 |  | aqueous buffer | pH 7.4 |  | thermodynamic solubility | 157 µM (≈ 46.5 µg/mL) |
| CCc1cc(C(=O)NC)c2nccc(N3CCc4c(cc(Cn5ccnc5)cc4-c4cn(C)nc4C(F)(F)F)C3=O)c2c1 |  | Sprague Dawley rat | oral, 100 mg/kg once daily, day 4, 7-day toxicology study |  | body weight | 243 ± 5.6 g |
| CCN(CC)Cc1ccc2cc(COC(=O)Nc3ccc(C(=O)NO)cc3)ccc2c1 |  | rat plasma | 5 ng/mL, three freeze-thaw cycles | reference: nominal concentration | stability relative error | 88% |
| N#Cc1ccc2c(c1)[C@H]1CCCN(C(=O)c3ccc4[nH]cnc4c3)[C@H]1C2 |  | human males | 240 mg, end of trial |  | DHEA-S level | 6.7 µmol/L |
| CCCCC[C@H]1CC[C@H](c2ccc(OCC)c(F)c2F)CC1 |  | rat, placenta | 5000 ng/mL in perfusate, high dose, mixture of 21 LCMs |  | median placental accumulation | 195 ng/g |
| Cc1cc(C)c(CNC(=O)c2cc(Cl)c3c(c2C)O[C@@](C)([C@H]2CC[C@H](N(C)C)CC2)O3)c(=O)[nH]1 | measured: Fatigue | human patients | oral, 200 mg once daily, 1 day onset day 14 |  | patients with TEAE | 8.3% |
| COc1ccc([C@@H](O)c2cc(-c3ncnc4cc(N5CCOCC5)ccc34)c(F)cc2Cl)nn1 |  | locally advanced rectal cancer patients | 100 mg, together with: capecitabine and radiotherapy |  | drug-related lymphocyte count decrease | 33% |
| Cc1ccc(C(=O)N(CCCN)C(c2nc3snc(C)c3c(=O)n2Cc2ccccc2)C(C)C)cc1 (stereo not drawn) | measured: Hypokalemia | human patients | intravenous, 16 mg/day, CTCAE grade ≥3 |  | patients with adverse events | 22% |

| SMILES | test | system | setting | how to read | measurement | result |
| --- | --- | --- | --- | --- | --- | --- |
| Cc1cc(NC2CCN(C(=O)OC3CCN(C(=O)/C=C/CN(C)C)C3)CC2)n2ncc(C(C)C)c2n1 (stereo not drawn) | Phase I dose escalation CTCAE v4.0, measured: abdominal pain | patients with advanced solid tumours | dose not given, QD dosing any grade |  | patients with adverse event | 23% |
| N#Cc1ccc2c(c1)[C@H]1CCCN(C(=O)c3ccc4[nH]cnc4c3)[C@H]1C2 |  | human, plasma | 80 mg once daily, day 14 |  | pre-dose plasma concentration | 1640 nmol/L |
| Cc1nc2cccc(OCC(C)(C)C(=O)NC(C)C)c2c(N)c1C(=O)O |  | Swiss albino CD-1 mouse | oral, 2000 mg/kg, 24 h |  | mean body weight change | -0.2 ± 0.7 g |
| O=C(N[C@H](Cc1c[nH]c2ccccc12)C(=O)Nc1ccncc1)c1ccc(N2CCN(c3ccc(F)c(F)c3)CC2)cc1F |  | Swiss Webster mouse, female, liver | oral, 50 mg/kg, 2 h, 20% HPβCD vehicle |  | concentration | 10.8 µM |
| Cn1cc(Nc2nc(N)nc(-c3cccc(-n4ccc5cc(C6CC6)cc(F)c5c4=O)c3CO)n2)cn1 |  | healthy humans, fed | oral tablet, 150 mg twice daily (multiple dose), 14 (unit not given) | reference: subjects | nausea incidence | 0% |
| C[C@@H](Oc1ccc(S(C)(=O)=O)cc1C(=O)N1C[C@@H]2C[C@]2(c2cc(C(F)(F)F)on2)C1)C(F)(F)F |  | human | oral, 25 mg |  | subjects with discoloured faeces | 16.7% |
| COc1ccc2c(c1)CN(C(=O)CCN1CCC(Cc3ccccc3)CC1)CC[S@@+]2[O-] | telemetry | conscious male beagle dogs | intravenous, 8 mg/kg, 0.5 h |  | QTc interval | 242 ± 27 ms |
| Cn1cc(-c2cn3nccc3c(-c3cnn([C@]4(CC#N)C[C@@H](C#N)C4)c3)n2)cn1 |  | healthy human, plasma | 30 mg once daily, day 10, multiple dose, fed, geometric mean |  | MRT | 10.6 h |
| Cc1ccc(Sc2ccccc2N2CCNCC2)c(C)c1 | measured: Nausea | healthy adult men | oral, 2.5 mg single dose |  | participants with TEAE | 0% |
| C[C@H]1O[C@@H](O[C@H]2[C@@H](O)C[C@H](O[C@H]3[C@@H](O)C[C@H](O[C@H]4CC[C@@]5(C)[C@H](CC[C@@H]6[C@@H]5C[C@@H](O)[C@]5(C)[C@@H](C7=CC(=O)OC7)CC[C@]65O)C4)O[C@@H]3C)O[C@@H]2C)C[C@H](O)[C@@H]1O | measured: Nausea | human | oral, 0.25 mg |  | participants with TEAE | 3.4% |
| CN[C@@H](C)C(=O)N[C@H]1CN(S(=O)(=O)c2cccc(S(=O)(=O)N3CC[C@H]4CC[C@@H](C(=O)NC(c5ccccc5)c5ccccc5)N4C(=O)[C@@H](NC(=O)[C@H](C)NC)C3)c2)CC[C@H]2CC[C@@H](C(=O)NC(c3ccccc3)c3ccccc3)N2C1=O | LC-MS/MS | human, advanced solid tumours, plasma | intravenous, 12 mg weekly, day 15 |  | AUC(0-t) | 214 ± 32.6 ng·h/mL |
| CN1CCC[C@H](CN2c3ccccc3Sc3ccccc32)C1.Cl |  | fasted female ICR mouse, brain | oral, 16 mg/kg |  | Tmax | 1 h |
| N#Cc1ccc(-c2cnc3ccc(-c4ccc(C(=O)N5CCOCC5)cc4)cn23)cc1 |  | healthy volunteers | oral, 10 mg, fasted, time-averaged |  | placebo-corrected heart rate change | -2 bpm |
| O=[N+]([O-])c1ccc(-c2ccc(O)cc2)c2cccnc12 |  | ICR mouse, male, plasma | intravenous, 1 mg/kg |  | AUC(0-t)/AUC(0-inf) ratio | 0.998 |
| Cc1cc(Nc2cc3ncccc3c(N[C@@H]3C[C@H]4CC[C@@H](C3)N4CCC#N)n2)n[nH]1 |  | human, plasma | 270 mg, day 14, geometric mean |  | AUC(0-4) | 22.2 ng·h/mL |
| CC(C)NCCCC[C@@H]1NC(=O)[C@H](Cc2ccc(O)cc2)NC(=O)[C@H](Cc2ccccc2)NC(=O)CC[C@H](C(=O)N[C@@H](CCCCNC(C)C)C(=O)N[C@@H](CCCCNC(=O)[C@H](CCC(=O)O)NC(=O)[C@H](CCC(=O)O)NC(=O)[C@H](CCC(=O)O)NC(=O)CN2CCN(CC(=O)O)CCN(CC(=O)O)CCN(CC(=O)O)CC2)C(N)=O)NC(=O)CNC(=O)[C@H](Cc2ccc3ccccc3c2)NC(=O)[C@@H](CCCNC(=N)N)NC1=O [gallium-68 labelled] |  | mouse with JeKo-1 xenograft, bone | intravenous, 1 h |  | tissue uptake | 0.31 %ID/g |
| Nc1nc2c(nc([N+](=O)[O-])n2[C@@H]2O[C@H](CO)[C@@H](O)[C@H]2O)c(=O)[nH]1 | depurination, RP-HPLC | citrate-phosphate buffer 0.5 mM | 90 min, pH 7, 37 °C |  | nucleoside remaining fraction | 0.894 |
| CC(C)(C(=O)N1CCOc2c(C#N)cncc2C1)C(F)F | measured: skin irritation | healthy humans, both sexes | oral, 20 mg single dose |  | subjects with TEAE | 0% |
| Cc1ccc([C@@H]2O[C@H](CO)[C@@H](O)[C@H](O)[C@H]2O)cc1Cc1ccc(-c2ccc(F)cc2)s1 |  | Japanese type 2 diabetes patients | 200 mg, day 1, 24 h urine collection | reference: baseline | urinary calcium excretion change | -25.7 mg |
| CCN1/C(=C/C(C)=O)Sc2ccc(F)cc21 |  | cynomolgus monkey | oral, 30 mg/kg, 1 h post-dose |  | diastolic blood pressure | 74 ± 5 mmHg |
| C#C[C@]1(O)CC[C@H]2[C@@H]3CCC4=CC(=O)CC[C@@H]4[C@H]3CC[C@@]21C | radioimmunoassay | HIV-infected women on protease inhibitor therapy, serum | oral, 0.35 mg daily, steady state, interval 0-72 h, geometric mean |  | AUC | 37.8 ng·h/mL |
| C=CCN1CC(=O)N2[C@@H](Cc3ccc(O)cc3F)C(=O)N(Cc3cccc(N4CC(N5CCN(CC)CC5)C4)n3)C[C@@H]2N1C(=O)NCc1ccccc1 |  | advanced solid tumour patients | oral, 80 mg twice daily, grade ≥3, dose-escalation |  | treatment-related diarrhoea | 0% |

Some of these lines once more:
| SMILES | test | system | setting | how to read | measurement | result |
| --- | --- | --- | --- | --- | --- | --- |
| Cn1cc(-c2cn3nccc3c(-c3cnn([C@]4(CC#N)C[C@@H](C#N)C4)c3)n2)cn1 |  | healthy human, plasma | 30 mg once daily, day 10, multiple dose, fed, geometric mean |  | MRT | 10.6 h |
| O=C(N[C@H](Cc1c[nH]c2ccccc12)C(=O)Nc1ccncc1)c1ccc(N2CCN(c3ccc(F)c(F)c3)CC2)cc1F |  | Swiss Webster mouse, female, liver | oral, 50 mg/kg, 2 h, 20% HPβCD vehicle |  | concentration | 10.8 µM |
| Cc1cc(NC2CCN(C(=O)OC3CCN(C(=O)/C=C/CN(C)C)C3)CC2)n2ncc(C(C)C)c2n1 (stereo not drawn) | Phase I dose escalation CTCAE v4.0, measured: abdominal pain | patients with advanced solid tumours | dose not given, QD dosing any grade |  | patients with adverse event | 23% |
| CCCCC[C@H]1CC[C@H](c2ccc(OCC)c(F)c2F)CC1 |  | rat, placenta | 5000 ng/mL in perfusate, high dose, mixture of 21 LCMs |  | median placental accumulation | 195 ng/g |
| Cn1cc(Nc2nccc(-c3ccc4c(c3)CN(C3COC3)CC[C@H]4NC(=O)c3cn(C(C)(C)C)nn3)n2)cn1 |  | human, whole blood | 300 mg twice daily, day 7 | reference: pre-dose baseline | B cell count change | 48.7% |
